{"data": "Measured values from different studies", "note": "Each numbered part is a random draw from the data of one study; scales do not carry over between parts. Substitutions count along the parent as printed."}
{"data": "Set 1", "target": "Histone acetyltransferase KAT6A, winged helix 2, GST fusion (KAT6A, Homo sapiens, UniProt Q92794, residues 85-181)", "technique": "protein binding microarray", "form": "double-stranded DNA, one strand shown", "matrix": "in vitro", "concentration": "not given", "setting": "8-mer, flanks averaged, mean of 2 arrays, mostly near background", "relative to": "not given", "direction": "higher = stronger binding", "Target sequence (chain)": "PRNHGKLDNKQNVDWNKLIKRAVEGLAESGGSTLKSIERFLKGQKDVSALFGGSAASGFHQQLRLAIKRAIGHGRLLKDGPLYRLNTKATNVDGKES"}
{"Sequence": "AAGACCAG", "E-score": 0.000655}
{"Sequence": "AGGTCCTC", "E-score": -0.0913}
{"Sequence": "CTAAGCAG", "E-score": -0.00073}
{"Sequence": "ACCTACTG", "E-score": -0.125}
{"Sequence": "AGCAATGC", "E-score": 0.172}
{"Sequence": "AAGGAGGT", "E-score": -0.1}
{"data": "Set 2", "target": "ABI1, truncated, D143A, DHFR fusion (Arabidopsis thaliana)", "technique": "DHFR PCA, deep sequencing", "matrix": "yeast", "setting": "methotrexate growth selection, single substitutions", "with": "(+)-ABA 1.4 µM", "relative to": "wild-type fitted maximum", "direction": "higher = stronger binding", "starting sequence": "PYL1, truncated, DHFR fusion (Arabidopsis thaliana); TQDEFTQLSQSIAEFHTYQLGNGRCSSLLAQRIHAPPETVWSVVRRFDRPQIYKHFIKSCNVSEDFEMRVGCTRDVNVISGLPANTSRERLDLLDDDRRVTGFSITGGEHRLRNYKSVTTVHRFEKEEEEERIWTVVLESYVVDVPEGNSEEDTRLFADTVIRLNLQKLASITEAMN"}
{"Substitution": "P83Y", "relative binding score [%]": -4.93}
{"Substitution": "V137I", "relative binding score [%]": 17.3}
{"Substitution": "S27K", "relative binding score [%]": -5.98}
{"Substitution": "N165P", "relative binding score [%]": 19.5}
{"Substitution": "D95M", "relative binding score [%]": 3.17}
{"Substitution": "K126Q", "relative binding score [%]": 67.5}
{"data": "Set 3", "target": "CCNF, cyclin fold, Cln2 fusion (human)", "technique": "yeast growth competition, sequencing", "matrix": "yeast", "setting": "weak parent motif", "relative to": "not given", "direction": "higher = stronger binding", "starting sequence": "CDC42EP1 docking peptide (human); SLVVGKLSFDSSP"}
{"Substitution": "SLVVGKLSFDSSA [P13A]", "normalised enrichment score": -0.0733}
{"Substitution": "ALVVGKLSFDSSP [S1A]", "normalised enrichment score": 0.13}
{"Substitution": "SLVVGKASFDSSP [L7A]", "normalised enrichment score": -0.0838}
{"Substitution": "SLVAGKLSFDSSP [V4A]", "normalised enrichment score": -0.118}
{"Substitution": "SLVVGKLSFDASP [S11A]", "normalised enrichment score": 0.334}
{"Substitution": "SLVVAKLSFDSSP [G5A]", "normalised enrichment score": -0.228}
{"data": "Mixed results"}
{"Substance": "PhoQ, residues 284 288 289 292 302 303 SSLVEF", "target": "PhoP, residues 12 14 15 18 19 LHSVW (Escherichia coli, UniProt P23836)", "test": "Sort-seq, measured: YFP reporter", "system": "E. coli", "setting": "PhoQ-PhoP variant library, with: 10 µM Mg2+", "scale": "relative to: high Mg2+ state, higher = stronger signaling", "quantity": "fold induction", "result": 2.08}
{"note": "Excerpt of the above (set 3):"}
{"Substitution": "SLVVGKLSFDSSA [P13A]", "normalised enrichment score": -0.0733}
{"Substitution": "SLVVGKLSFDASP [S11A]", "normalised enrichment score": 0.334}
